Published values from different studies.
A part holds a random share of what one study measured. Changes are numbered by the printed parent chain.

Block 1 — technique: protein-binding microarray; form: double-stranded DNA, one strand shown; medium: in vitro; concentration: 2540 nM top; setting: 60-bp whole probe; with: salmon DNA 0.4 mg/ml; relative to: random background probes; direction: higher = stronger binding; all sequences stand within: GCCTAGCAC … GTCTTGATTCGCTTGACGCTGCTG
Target: Interferon regulatory factor 3, full length, phosphomimetic (IRF3, Homo sapiens, UniProt Q14653, residues 1-427, S386D/S396D/S398D/S402D/T404D/S405D)
Sequence of UniProt Q14653 (whole entry, unmodified, looked up): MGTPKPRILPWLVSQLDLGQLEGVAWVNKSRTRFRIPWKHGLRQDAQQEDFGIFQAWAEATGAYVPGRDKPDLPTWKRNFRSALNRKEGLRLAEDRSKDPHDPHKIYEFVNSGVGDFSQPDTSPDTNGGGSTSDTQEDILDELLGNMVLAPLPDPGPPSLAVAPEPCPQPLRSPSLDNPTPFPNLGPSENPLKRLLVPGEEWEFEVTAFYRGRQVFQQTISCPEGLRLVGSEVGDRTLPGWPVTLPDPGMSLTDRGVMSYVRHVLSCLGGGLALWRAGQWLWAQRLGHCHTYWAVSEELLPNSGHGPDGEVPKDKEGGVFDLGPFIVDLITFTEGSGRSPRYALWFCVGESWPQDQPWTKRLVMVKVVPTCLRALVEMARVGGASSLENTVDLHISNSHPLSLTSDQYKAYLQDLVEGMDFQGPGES
| Sequence | fitted relative affinity [z-score] |
| --- | --- |
| GACGGTATCCTTGTCCTGACGTGCTAG | 2.97 |
| GACGGACTGGGGACTCGGGACGTGCTA | -0.895 |
| TTAGGTATCCGTCTCCTTTAGTGCTAG | 4.64 |
| TTAGAACTGGGGTTTCCATTAGTGCTA | 1.25 |
| GACGATAACGGGTATCGAGACGTGCTA | -0.247 |
| GACGATTTCGGGAATCGAGACGTGCTA | 1.44 |
| TACGAACTGAGACTGGAGACGTGCTAG | -0.316 |
| GACGGAATGGGTTTCGGGACGTGCTAG | 1.69 |
| GACGGTATCAACTATCGGGACGTGCTA | 0.645 |
| TTAAGTTTCCTTATCCTTTAGTGCTAG | 8.88 |
| GACGGTTCCGGACTGGGGACGTGCTAG | 1.7 |
| GACGGTATCGCACTGGGGACGTGCTAG | 1.01 |
| GACGTTTTCGGACTGGGGACGTGCTAG | 2.09 |
| GAGGGTTTCGGTTTCGGGACGTGCTAG | 9.62 |
| TCAATTTTTGCTTACGAACTGTGCTAG | 0.219 |
| TTAGATTTCGGTTTCGGTTAGTGCTAG | 9.1 |
| GACGGTTTCCTATCCCTGACGTGCTAG | 6.36 |
| TTAGATTTCAGTCTCGATTTGTGCTAG | 2.64 |
| TCACACATCTCACTCTAACTGTGCTAG | 0.634 |
| TTAGATTTCAGTTTCGAATAGTGCTAG | 5.24 |
| TTAGATATCGGGAATCGATTAGTGCTA | -0.0548 |

Block 2 — technique: DHFR PCA, deep sequencing; medium: yeast; with: (+)-ABA 4.8 µM; relative to: wild-type fitted maximum; direction: higher = stronger binding
Target: ABI1, truncated, D143A, DHFR fusion (Arabidopsis thaliana)
Setting: methotrexate growth selection, single substitutions
Parent: PYL1, truncated, DHFR fusion (Arabidopsis thaliana); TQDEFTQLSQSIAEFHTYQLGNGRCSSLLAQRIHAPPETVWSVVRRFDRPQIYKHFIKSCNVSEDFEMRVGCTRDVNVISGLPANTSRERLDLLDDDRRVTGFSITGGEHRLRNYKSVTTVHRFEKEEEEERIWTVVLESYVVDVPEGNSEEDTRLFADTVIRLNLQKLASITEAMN
| Change | relative binding score |
| --- | --- |
| H55N | 65.8% |
| D48K | -3.15% |
| G108V | -9.62% |
| P50L | -9.26% |
| N61G | 46.2% |
| R113W | 17% |
| F157R | 3.64% |
| C25M | 33.2% |
| S11R | 40.9% |
| Q10R | 69.3% |
| A158T | 86% |
| F103L | -3.37% |
| V142S | 69.4% |
| L91E | 2.08% |
| Y53C | -3.07% |
| L94S | 4.19% |
| F124K | 12.9% |

Block 3 — target: CCNF, cyclin fold, Cln2 fusion (human); technique: yeast growth competition, sequencing; medium: yeast; setting: strong parent motif; relative to: not given; direction: higher = stronger binding
Parent: SLBP docking peptide (human); ARYKRKLLINDFG
| Change | normalised enrichment score |
| --- | --- |
| K4H | 2.29 |
| Y3G | 1.71 |
| Y3H | 0.993 |
| N10W | 2.41 |
| R5Q | 0.751 |
| R2I | 2.03 |
| N10S | 1.84 |
| A1G | 1.86 |
| N10K | 2.27 |
| K6N | 1.93 |
| Y3D | 1.41 |
| L7M | 1.3 |
| D11P | 2.77 |
| Y3K | -0.0967 |
| D11I | 2.55 |
| K4N | 1.73 |
| N10A | 1.93 |
| F12R | 1.63 |
| K4D | 0.11 |
| R5A | 1.23 |
| I9G | 1.79 |
| G13Q | 0.997 |
| I9W | 2.13 |
| L7G | 0.736 |
| K6W | 2.75 |

Block 4 — technique: Sort-seq; refers to: YFP reporter; medium: E. coli; setting: PhoQ-PhoP variant library; with: 10 µM Mg2+; relative to: high Mg2+ state; direction: higher = stronger signaling
Molecule: PhoQ, residues 284 288 289 292 302 303 DDMDFR
| target | fold induction |
| --- | --- |
| PhoP, residues 12 14 15 18 19 SHWTV (Escherichia coli, UniProt P23836) | 0.941 |
| PhoP, residues 12 14 15 18 19 STHWV (Escherichia coli, UniProt P23836) | 3.27 |
| PhoP, residues 12 14 15 18 19 QYCSL (Escherichia coli, UniProt P23836) | 0.814 |

Block 5 — technique: RNA Bind-n-Seq; form: RNA; medium: in vitro; concentration: 365 nM; relative to: no-protein control; direction: higher = stronger binding
Target: RNA binding protein fox-1 homolog 2, RRM domain, GST-SBP tag (RBFOX2, Homo sapiens, UniProt O43251-10, residues 100-194)
Setting: natural RNA segment, single round, ends assumed
All sequences stand within: GGGAGUUCUACAGUCCGACGAUC … UGGAAUUCUCGGGUGCCAA
Residues (chain): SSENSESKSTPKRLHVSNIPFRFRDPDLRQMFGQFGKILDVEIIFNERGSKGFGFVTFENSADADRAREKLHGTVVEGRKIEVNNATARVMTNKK
| Sequence | RBNS enrichment (R) |
| --- | --- |
| UUCCAAACAGAUUCGAGCAAUGCUUCAGUAGAGCUCUGCUCAAAGAAGAGGAUCUAUGUGCUGACCUCAGAAGAUGUAUAUGUUUACAUAAUUUAAUACAGAUUGAUGUU | 0.523 |
| AUGACAAACUGAGGUCAGGGGUAGCUGCAGUGUGGGGCUGUCAGAAGAUGAAUACAGCAUCCCGCAGAGGUAGGAUAUGAGGAGGCUAUACUGGAGCGUAGGGAUGAGAU | 2.14 |
| AGGUCUCGCUGAUGCUGGGCUGGGUGCGACCCCAUCUGCCCAGGACGGGGCCGGCCAGGUGGGCGGGCAGCACAGCAAGGAGGCUGGCUGGGGCCUAUCAGUGUGCCCCC | 0.35 |
| UUGGAAGCCAGGUGCAGGGCCAGGCAUCUGCAUUGUGGGAUGUUAAUGGCACUUUUGUCUUGUAGCUAUUUUGAGAUGUGGUCCAGAGCAUUUCAGCUGGGAGAUCUCCC | 1.31 |
| CAGCCCAGGACACCUACGCCUCGUCCCUCGGUGCCUGGGUCCAGCCCUGUGCCCCUCUGUCCGCCUCUUCACCGCUGGCAGAGGGCAGGCUGCAUGCAGUGGCGGCUGCU | 3.88 |
| AGAAACUUCCAAAUCCCCUAAGCAGACCACUGAUAAAACCAUGUAGAAAAUUUGUUAUUUUGCAACCUCGCUGGACUCUCAGUCUCUGAGCAGUGAAUGAUUCAGUGUUA | 0.729 |
| UCUUGUCCCUGAACUUCGUUGUACCAGUGCAUGGAGAGAAAAUUUUGUCCUCUUGUCUUAGAGUUGUGUGUAAAUCAAGGAAGCCAUCAUUAAAUUGUUUUAUUUCUCUC | 5.64 |
| UCUCUUUGCAUGCCAUGUGUAAUAUACCUAGCCAAAACCAGAUGCGGUGACUUUCUUUUUUUGUAAAGCAAAUUACUUAAGAAAAUACAAUUCACUUGAAUUUGACAAAC | 3.55 |
| GGGUUUGCCAGUAGAACACUGCGUUCCAGUCACCCCGGUCUUGCCAGAAGAAACCAGCACCUCUUUCCCGUGGCUCCUGUGUUCAGAAUGUGGUAUUGGCUCUGGCCCAG | 2.01 |
| GCUUCUACAACACUGACCUCCAUGAGGUAUUUACUGUGCAAUAACAGAUUCGUCUUCUGAGAGCUUGAAGCAACCCAUGAUUUGUCCCUCCACUGCUCUUCACUGGGUUC | 0.241 |
| CUUUUUGAAGAUUAGGUGGUUUUGCUCUUUAACAUUUUUGUGACUUUGGUUUAUUUUCUUCCCAUGUCGCCCAGAGAUUACUUGUGUGUGUGCCAUUCUGCUCAAAACUA | 0.33 |
| GGUAUAUGUUACCCACAGUCCAUUUCAGUUAUUCCCACAAGUCAGGUCCAGAUAAAUGAGGGUUAUCAGCUAACUGAUAUGUUAUCAUUGAGGUUCGUCAAUGAAUUUGU | 0.417 |

Repeated from above (block 1):
| Sequence | fitted relative affinity [z-score] |
| --- | --- |
| GACGGTATCAACTATCGGGACGTGCTA | 0.645 |
| GACGGTATCGCACTGGGGACGTGCTAG | 1.01 |
| TCAATTTTTGCTTACGAACTGTGCTAG | 0.219 |
| TTAGATTTCAGTTTCGAATAGTGCTAG | 5.24 |
| GACGTTTTCGGACTGGGGACGTGCTAG | 2.09 |
| GACGATAACGGGTATCGAGACGTGCTA | -0.247 |
| GACGGAATGGGTTTCGGGACGTGCTAG | 1.69 |
| GACGATTTCGGGAATCGAGACGTGCTA | 1.44 |
| TTAGATTTCGGTTTCGGTTAGTGCTAG | 9.1 |
